Results of several laboratories.
Parts stem from different laboratories: compare values within a part only. Changes are numbered by the printed parent chain.

Block 1
Target: ABI1, truncated, D143A, DHFR fusion (Arabidopsis thaliana)
Method: DHFR PCA, deep sequencing
Sample: yeast
Setting: methotrexate growth selection, single substitutions
Together with: (+)-ABA 4.8 µM
Reference: wild-type fitted maximum
Reading: higher = stronger binding
Parent: PYL1, truncated, DHFR fusion (Arabidopsis thaliana); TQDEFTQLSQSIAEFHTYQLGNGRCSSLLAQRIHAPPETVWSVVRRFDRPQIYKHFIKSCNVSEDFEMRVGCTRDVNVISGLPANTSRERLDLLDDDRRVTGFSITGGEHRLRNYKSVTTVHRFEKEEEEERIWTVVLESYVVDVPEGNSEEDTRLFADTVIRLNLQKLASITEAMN
`I162W` — result for “relative binding score”: -4.31%.
`L82W`: “relative binding score” 26.6%.
Under “relative binding score”, `T101Y` is recorded as 39.9%.
For `S80V`, “relative binding score” read 2.07%.
Under “relative binding score”, `G102A` is recorded as 44.4%.
For `R45H`, “relative binding score” read -1.43%.
`T120D`: “relative binding score” -1.55%.
`D144Y` — result for “relative binding score”: 0.768%.
`Q7E` — result for “relative binding score”: 73.7%.
`T106D`: “relative binding score” 8.71%.
For `R123L`, “relative binding score” read 53.6%.
`L156C` — result for “relative binding score”: 83.6%.
`S42N`: “relative binding score” 67.5%.
For `E109L`, “relative binding score” read 19.9%.
`G23F`: “relative binding score” 20.4%.
`P83L`: “relative binding score” 11.5%.
`V40Y` — result for “relative binding score”: 2.9%.
For `D144M`, “relative binding score” read -4.83%.
`R88S` — result for “relative binding score”: 60%.
`S140Q` — result for “relative binding score”: -15.4%.

Block 2
Target: CCNE1, cyclin fold, Cln2 fusion (human)
Method: yeast growth competition, sequencing
Sample: yeast
Setting: weak parent motif
Reference: not given
Reading: higher = stronger binding
Parent: BORA docking peptide (human); SSLRRKLFLDGNG
For `R5K L9F`, “normalised enrichment score” read 1.05.
Under “normalised enrichment score”, `D10A` is recorded as 0.114.
`F8A`: “normalised enrichment score” 0.471.
`G11A`: “normalised enrichment score” 0.767.
`F8L`: “normalised enrichment score” 0.438.
`G13A` — result for “normalised enrichment score”: 0.861.
`N12A`: “normalised enrichment score” 1.41.
`R4A`: “normalised enrichment score” 0.652.
Under “normalised enrichment score”, `R5K` is recorded as 0.739.

Block 3
Target: BATF3, bZIP domain (human)
Method: DHFR protein complementation
Sample: yeast
Setting: single substitutions, most at no-binding floor
Reference: wild-type JUN-FOS pair
Reading: higher = stronger binding
Parent: JUN, bZIP domain (human); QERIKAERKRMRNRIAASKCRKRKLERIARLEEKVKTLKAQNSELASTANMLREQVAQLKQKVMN; partner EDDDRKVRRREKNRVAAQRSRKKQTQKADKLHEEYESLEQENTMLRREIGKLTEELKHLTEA
`E32D` has a binding fitness of 0.285 natural log.
For `M51H`, the binding fitness was 0.237 natural log.
`A57E` has a binding fitness of 0.208 natural log.
`K34T` gave a binding fitness of 0.248 natural log.
For `N42V`, the binding fitness was -0.133 natural log.
`K34F` has a binding fitness of 0.0256 natural log.
`E54G` has a binding fitness of 0.275 natural log.
With `K39D` the binding fitness was 0.0138 natural log.
`T48G` has a binding fitness of -0.12 natural log.
With `Q41T` the binding fitness was 0.174 natural log.
`A57S` gave a binding fitness of 0.209 natural log.
The binding fitness of `L31C` is reported as 0.131 natural log.
With `A49V` the binding fitness was 0.198 natural log.
The binding fitness of `A49K` is reported as 0.152 natural log.
`S43Y` gave a binding fitness of 0.156 natural log.
With `V56A` the binding fitness was 0.0904 natural log.
For `V56D`, the binding fitness was -0.778 natural log.
`R53A` gave a binding fitness of 0.155 natural log.
For `A40D`, the binding fitness was 0.212 natural log.
The binding fitness of `K39G` is reported as 0.115 natural log.
The binding fitness of `A29D` is reported as 0.296 natural log.
For `A57L`, the binding fitness was 0.107 natural log.
`L45A` has a binding fitness of -0.0514 natural log.
The binding fitness of `T37F` is reported as 0.19 natural log.

Block 4
Target: RING finger protein unkempt homolog, zinc fingers 1-6, SBP tag (UNK, Homo sapiens, UniProt Q9C0B0, residues 30-357)
Chain of UniProt Q9C0B0 (30-357, looked up): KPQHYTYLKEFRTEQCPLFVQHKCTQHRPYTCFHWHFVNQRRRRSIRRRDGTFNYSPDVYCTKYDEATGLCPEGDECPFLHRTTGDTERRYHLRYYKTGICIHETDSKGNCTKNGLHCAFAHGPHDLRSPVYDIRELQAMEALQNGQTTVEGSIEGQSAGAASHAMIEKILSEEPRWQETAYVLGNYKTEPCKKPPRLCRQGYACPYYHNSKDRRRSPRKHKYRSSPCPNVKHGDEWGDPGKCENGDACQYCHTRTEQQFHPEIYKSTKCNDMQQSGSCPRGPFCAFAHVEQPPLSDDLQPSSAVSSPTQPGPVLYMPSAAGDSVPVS
Method: RNA Bind-n-Seq
Molecule type: RNA
Sample: in vitro
Tested at: 100 nM
Setting: RNA with constant flanks, vertebrate orthologous sites, ends assumed
Reference: input RNA pool
Reading: higher = stronger binding
`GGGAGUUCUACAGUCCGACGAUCGUAGUUUGUUUUUAAUUUCAAGCAAAAAAUCUUAUUGUACUUGAAUGUGUCCUGUUUUGUUAGCACACCUAGACUUGCUGUAACUGUACUCAUGUCCCAGUAUGUACGUUCUUUCUAUGACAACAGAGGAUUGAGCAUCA` has a bound/input enrichment of 1.02 ratio.
With `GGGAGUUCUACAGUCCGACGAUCGAACUAAAGGAGUUAGCAUCUUUAUUUUUGUAUCAAAGAUAAAGGUUAUUUUGAAAUUAUUAAGAUUUUUACACAACUCUGAAAUCUGUUGCUUUUGUAAACAAGUUGUUUAAUCUUAGGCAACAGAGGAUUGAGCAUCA` the bound/input enrichment was 0.474 ratio.
With `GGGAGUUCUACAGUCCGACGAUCAAAUUUAUUUCAUGCCAUGGACCCCAUAUCGUACGGACACCUUGAUAGAAUAUGCUUCUUUGGAGGACUUCCAAAACAGCCGCCAAACGACAACAUAUAAACUCCCCAAUCGAGUGGAUGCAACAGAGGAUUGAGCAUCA` the bound/input enrichment was 0.724 ratio.
`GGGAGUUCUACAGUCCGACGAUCGGGACGUUUUGAUGUAAAAAUUGAAGUUAAGAGCUGAUCACAAGCACAAAUCUUUCCCACUAGCCAUUUAAUAAGUUAAAAAGAUACAGAAACAAAAACCUACUAGUCUUGAACAAACUGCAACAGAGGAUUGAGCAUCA` has a bound/input enrichment of 1.8 ratio.
With `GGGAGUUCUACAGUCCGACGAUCAUUGAACAAAAGCGUUUCCACUGGGUUUCGCCUGUAAGAAAAAAAACAUACCCGAGCACAUACAGCUUUUUAAUAGCACUAACCAAUGCCUUUUUAGAUGUAUUUUUGAUGUAUAUAUCUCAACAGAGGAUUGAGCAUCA` the bound/input enrichment was 0.706 ratio.
The bound/input enrichment of `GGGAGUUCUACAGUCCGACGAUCAAAUCUACUUCAUGCCUUGGACUCCAUACAGGACAGACACUUUGAUUGAGUACUCCUCCCUGGAUGACUUCCAAAAUGGCCGGCAAACCAUUACCUACAAGCUGCCUCACCGGGUGGAUGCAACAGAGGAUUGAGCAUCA` is reported as 0.39 ratio.
With `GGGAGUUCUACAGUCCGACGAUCACAAGCCACAUAGGAUAUUUGUGCUAUUUAAAAGUGAGCUUUGCUUUUUCUGCAUUCAAAGAGAAUCCUUUUGUAUCAGGGGUGCUUUAAAAGUGUGAAGGUGUGCUCUGCUAAUCCCAGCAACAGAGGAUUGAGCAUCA` the bound/input enrichment was 0.532 ratio.
For `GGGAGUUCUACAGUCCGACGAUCGUGUUGGUGCAGAGUGUCCUGUACCAGUGCUCAUCAUCCCCUCUUCAUACCAACUGUCCCUAGUUAUAGGAAUUUAAUAUUUUUAAAAGUUUUACAUUGCUGUAUAUUCAAAGAUUUGUUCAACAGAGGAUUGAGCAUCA`, the bound/input enrichment was 1.08 ratio.
`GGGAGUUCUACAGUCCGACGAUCAUUUGGUUAAUUUUGAUCUCCUCUUCCUCUUCCUUGCCCACCCAUACAAUUUUUUUUUAUGCAUAUUUAGUAACACUAGCUCUCCAGGUUCAAUUUAGGAAAAUGAUUCUCAAGAACAAACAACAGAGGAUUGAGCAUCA` has a bound/input enrichment of 2.02 ratio.
The bound/input enrichment of `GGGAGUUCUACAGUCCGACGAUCGAUCCUCCCCGUUACCCCUAAAGUAGAACUUACCAAAAUUGUGUGCCUGCCACACAGUUUUAACAAUAUUAGAAGAAAAUGCUAAUGAAGUUACACUCAUUGUUUGGCAAACCAAAUAGUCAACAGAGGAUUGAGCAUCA` is reported as 1.48 ratio.
For `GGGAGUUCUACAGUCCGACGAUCGCUGUUAAUGCACUGUAUUCCAGGCAUCGUCUGAUUUUUAGUGUAAUCUAGGAGAUUUUAUAAUUUUAUUUUAAUGAAGUAUUGAUUGAUGCAAAGUUGUUAGCAGUCUGUAGUCUUUUACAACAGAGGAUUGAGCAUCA`, the bound/input enrichment was 1.19 ratio.

Block 5
Target: Max dimerization protein 1, bHLH-zipper, MAX partner unstated (MXD1, Homo sapiens, UniProt Q05195, residues 56-136)
Method: protein-binding microarray
Molecule type: double-stranded DNA, one strand shown
Sample: in vitro
Tested at: not given
Setting: k-mer, scored over probes, only values ≥0.25
Reading: higher = stronger binding
Residues (chain): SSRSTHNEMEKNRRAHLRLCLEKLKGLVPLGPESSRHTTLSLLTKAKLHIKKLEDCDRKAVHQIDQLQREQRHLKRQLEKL
The E-score of `ATACACGC` is reported as 0.31.
With `ACATGTTG` the E-score was 0.376.
The E-score of `AACACGGG` is reported as 0.286.
With `CATGCTAG` the E-score was 0.282.
For `CATGCAAC`, the E-score was 0.37.
`CATGTGGA` has an E-score of 0.454.
For `ACGTGATC`, the E-score was 0.331.
`CAGCGTGC` gave an E-score of 0.39.
With `ATGCGCCC` the E-score was 0.271.
`GCATGCTA` gave an E-score of 0.354.
For `ACGCGTAT`, the E-score was 0.269.
With `CAGGTGTA` the E-score was 0.257.
With `CCATATGC` the E-score was 0.352.
With `ATTCCCCC` the E-score was 0.279.
With `AACACGCG` the E-score was 0.428.
`CACGTCCC` has an E-score of 0.257.
For `CACGTTGG`, the E-score was 0.402.
With `CATGGAGC` the E-score was 0.262.
`AGCACACG` has an E-score of 0.283.
For `GTGGTTCA`, the E-score was 0.304.
For `GGTGGGTA`, the E-score was 0.363.
The E-score of `CTCGTGGA` is reported as 0.367.
`AAGCGTGT` has an E-score of 0.358.

Block 6
Target: Histone acetyltransferase KAT6A, both winged helices, GST fusion (KAT6A, Homo sapiens, UniProt Q92794, residues 1-181)
Method: protein binding microarray
Molecule type: double-stranded DNA, one strand shown
Sample: in vitro
Tested at: not given
Setting: 8-mer, flanks averaged, mean of 2 arrays, mostly near background
Reference: not given
Reading: higher = stronger binding
Residues (chain): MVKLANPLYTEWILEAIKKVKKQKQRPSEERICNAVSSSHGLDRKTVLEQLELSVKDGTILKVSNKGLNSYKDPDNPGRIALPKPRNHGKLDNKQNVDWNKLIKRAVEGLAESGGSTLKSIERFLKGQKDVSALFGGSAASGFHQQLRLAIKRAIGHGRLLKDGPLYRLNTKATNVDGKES
The E-score of `AAGCGGCG` is reported as 0.321.
The E-score of `GAGAGGCC` is reported as -0.107.
For `CGCGGCCC`, the E-score was 0.326.
The E-score of `AGTTATCC` is reported as -0.0954.
The E-score of `CGATGTGC` is reported as 0.0979.
`TAAACCTA` has an E-score of -0.139.
For `CACTCCGG`, the E-score was 0.0162.
With `CAATTAAC` the E-score was 0.0541.
`ACTCAGAA` has an E-score of -0.134.
For `ATTAGGAC`, the E-score was -0.115.
`AGACTGCG` has an E-score of 0.0971.
`AAACGTAA` gave an E-score of 0.0094.
With `CGCTGACC` the E-score was 0.22.
`AACACAGG` has an E-score of -0.145.
For `ACCCGGTC`, the E-score was 0.209.
`TACACCAA` has an E-score of -0.101.
With `AATTACAC` the E-score was 0.00513.
For `GGGCTTTA`, the E-score was -0.0128.
`CTAATGGC` has an E-score of -0.0719.
With `ACCAGCCG` the E-score was 0.122.
With `CGGGGGAA` the E-score was 0.0764.
For `AGTCCCGG`, the E-score was 0.136.

Further values, each from its own experiment
With `PhoQ, residues 284 288 289 292 302 303 AMDMFI` the fold induction was 0.258 (PhoP, residues 12 14 15 18 19 IQSYL (Escherichia coli, UniProt P23836); Sort-seq, refers to: YFP reporter; E. coli; PhoQ-PhoP variant library, together with: 10 µM Mg2+; reference: high Mg2+ state, higher = stronger signaling).

A few entries again (block 5):
The E-score of `AACACGGG` is reported as 0.286.
With `CATGCTAG` the E-score was 0.282.
For `CATGCAAC`, the E-score was 0.37.
`CATGTGGA` has an E-score of 0.454.
For `ACGTGATC`, the E-score was 0.331.
`CAGCGTGC` gave an E-score of 0.39.
With `ATGCGCCC` the E-score was 0.271.
`GCATGCTA` gave an E-score of 0.354.
For `ACGCGTAT`, the E-score was 0.269.
With `CAGGTGTA` the E-score was 0.257.
With `CCATATGC` the E-score was 0.352.
With `ATTCCCCC` the E-score was 0.279.
With `AACACGCG` the E-score was 0.428.
`CACGTCCC` has an E-score of 0.257.
For `CACGTTGG`, the E-score was 0.402.
With `CATGGAGC` the E-score was 0.262.
`AGCACACG` has an E-score of 0.283.
